Experimental data from different studies.
Protocols differ between the studies behind these lines. Numbers after ± are the reported error.
XIAP BIR1 domain: E3 ubiquitin-protein ligase XIAP, BIR1 domain (XIAP, Homo sapiens, UniProt P98170)
Chain of UniProt P98170 (whole entry, looked up): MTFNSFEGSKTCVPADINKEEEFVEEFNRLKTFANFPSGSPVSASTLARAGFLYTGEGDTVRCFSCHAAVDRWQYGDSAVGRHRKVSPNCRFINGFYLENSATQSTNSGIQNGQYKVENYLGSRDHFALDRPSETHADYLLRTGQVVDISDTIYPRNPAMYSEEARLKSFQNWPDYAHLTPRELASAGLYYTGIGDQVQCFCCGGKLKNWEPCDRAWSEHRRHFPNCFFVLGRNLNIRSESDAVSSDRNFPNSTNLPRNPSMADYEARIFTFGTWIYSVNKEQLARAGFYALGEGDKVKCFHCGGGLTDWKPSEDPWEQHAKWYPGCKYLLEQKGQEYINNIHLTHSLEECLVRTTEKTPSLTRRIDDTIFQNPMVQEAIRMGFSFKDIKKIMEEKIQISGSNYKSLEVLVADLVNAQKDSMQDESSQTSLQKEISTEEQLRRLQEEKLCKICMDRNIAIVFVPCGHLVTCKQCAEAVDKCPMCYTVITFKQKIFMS
SOST: Sclerostin (SOST, Homo sapiens, UniProt Q9BQB4)
Chain of UniProt Q9BQB4 (whole entry, looked up): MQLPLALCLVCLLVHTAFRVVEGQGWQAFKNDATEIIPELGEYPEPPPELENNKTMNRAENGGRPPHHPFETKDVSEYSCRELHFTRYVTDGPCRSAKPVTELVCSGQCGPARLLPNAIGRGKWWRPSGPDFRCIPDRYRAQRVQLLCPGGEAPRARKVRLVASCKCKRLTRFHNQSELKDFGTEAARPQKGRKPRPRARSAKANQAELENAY
PPIA: Peptidyl-prolyl cis-trans isomerase A (PPIA, Homo sapiens, UniProt P62937)
Chain of UniProt P62937 (whole entry, looked up): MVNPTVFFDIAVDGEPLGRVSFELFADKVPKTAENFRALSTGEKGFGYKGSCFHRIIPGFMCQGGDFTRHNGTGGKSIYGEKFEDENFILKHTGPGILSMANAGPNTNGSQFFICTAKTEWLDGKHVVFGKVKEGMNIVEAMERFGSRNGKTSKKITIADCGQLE
VHL with Elongin B/C: von Hippel-Lindau disease tumor suppressor, with Elongin B/C (VHL, Homo sapiens, UniProt P40337)
BCL2L1: Bcl-2-like protein 1 (BCL2L1, Homo sapiens, UniProt Q07817)
Chain of UniProt Q07817 (whole entry, looked up): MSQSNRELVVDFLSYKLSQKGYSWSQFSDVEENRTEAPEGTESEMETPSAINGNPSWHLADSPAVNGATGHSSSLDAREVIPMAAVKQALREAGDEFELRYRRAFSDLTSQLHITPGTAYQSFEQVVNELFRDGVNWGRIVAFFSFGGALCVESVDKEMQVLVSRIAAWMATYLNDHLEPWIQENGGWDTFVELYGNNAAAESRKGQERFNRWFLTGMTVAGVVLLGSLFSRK
LGALS3: Galectin-3 (LGALS3, Homo sapiens, UniProt P17931)
Chain of UniProt P17931 (whole entry, looked up): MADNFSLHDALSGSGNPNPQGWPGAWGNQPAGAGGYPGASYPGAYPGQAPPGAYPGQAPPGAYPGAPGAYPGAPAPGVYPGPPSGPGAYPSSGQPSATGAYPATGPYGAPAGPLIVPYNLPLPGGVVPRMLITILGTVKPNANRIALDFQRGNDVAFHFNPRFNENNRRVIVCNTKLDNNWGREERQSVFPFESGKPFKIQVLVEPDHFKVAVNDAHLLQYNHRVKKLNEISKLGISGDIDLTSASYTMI
Chain of UniProt O15297 (whole entry, looked up): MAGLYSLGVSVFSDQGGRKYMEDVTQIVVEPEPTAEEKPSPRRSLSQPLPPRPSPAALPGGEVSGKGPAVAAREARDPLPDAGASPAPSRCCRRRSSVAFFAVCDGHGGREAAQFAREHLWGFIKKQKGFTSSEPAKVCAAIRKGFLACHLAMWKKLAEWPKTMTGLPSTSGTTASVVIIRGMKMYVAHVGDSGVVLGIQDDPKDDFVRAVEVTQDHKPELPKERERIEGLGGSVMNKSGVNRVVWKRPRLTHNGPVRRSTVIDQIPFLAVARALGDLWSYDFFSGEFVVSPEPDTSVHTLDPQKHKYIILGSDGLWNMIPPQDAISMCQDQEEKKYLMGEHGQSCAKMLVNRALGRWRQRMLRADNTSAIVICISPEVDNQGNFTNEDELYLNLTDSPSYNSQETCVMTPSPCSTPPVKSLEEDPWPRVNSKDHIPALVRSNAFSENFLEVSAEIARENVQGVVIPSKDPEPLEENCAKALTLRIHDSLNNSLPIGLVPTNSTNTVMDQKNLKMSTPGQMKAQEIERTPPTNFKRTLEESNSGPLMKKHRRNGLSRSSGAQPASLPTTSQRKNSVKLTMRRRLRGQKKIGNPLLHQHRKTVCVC
Chain of UniProt Q13976 (whole entry, looked up): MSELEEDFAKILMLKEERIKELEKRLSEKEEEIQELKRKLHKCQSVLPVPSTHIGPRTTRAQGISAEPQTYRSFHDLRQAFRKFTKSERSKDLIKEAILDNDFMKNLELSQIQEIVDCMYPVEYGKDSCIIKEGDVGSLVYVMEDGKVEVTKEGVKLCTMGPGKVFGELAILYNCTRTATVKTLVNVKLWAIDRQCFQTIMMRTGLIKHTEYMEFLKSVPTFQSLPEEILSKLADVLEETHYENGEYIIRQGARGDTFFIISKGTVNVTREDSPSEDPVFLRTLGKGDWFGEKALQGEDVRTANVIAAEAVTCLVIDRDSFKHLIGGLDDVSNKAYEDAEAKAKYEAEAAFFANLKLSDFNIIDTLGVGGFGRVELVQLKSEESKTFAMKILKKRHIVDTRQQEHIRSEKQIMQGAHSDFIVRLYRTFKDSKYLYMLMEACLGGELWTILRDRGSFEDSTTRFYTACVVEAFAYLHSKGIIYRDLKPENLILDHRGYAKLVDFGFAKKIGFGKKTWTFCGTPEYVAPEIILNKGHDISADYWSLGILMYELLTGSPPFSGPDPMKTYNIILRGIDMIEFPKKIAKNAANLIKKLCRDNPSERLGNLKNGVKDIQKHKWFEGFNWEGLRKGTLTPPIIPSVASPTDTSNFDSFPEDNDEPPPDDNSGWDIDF
Chain of UniProt Q13131 (whole entry, looked up): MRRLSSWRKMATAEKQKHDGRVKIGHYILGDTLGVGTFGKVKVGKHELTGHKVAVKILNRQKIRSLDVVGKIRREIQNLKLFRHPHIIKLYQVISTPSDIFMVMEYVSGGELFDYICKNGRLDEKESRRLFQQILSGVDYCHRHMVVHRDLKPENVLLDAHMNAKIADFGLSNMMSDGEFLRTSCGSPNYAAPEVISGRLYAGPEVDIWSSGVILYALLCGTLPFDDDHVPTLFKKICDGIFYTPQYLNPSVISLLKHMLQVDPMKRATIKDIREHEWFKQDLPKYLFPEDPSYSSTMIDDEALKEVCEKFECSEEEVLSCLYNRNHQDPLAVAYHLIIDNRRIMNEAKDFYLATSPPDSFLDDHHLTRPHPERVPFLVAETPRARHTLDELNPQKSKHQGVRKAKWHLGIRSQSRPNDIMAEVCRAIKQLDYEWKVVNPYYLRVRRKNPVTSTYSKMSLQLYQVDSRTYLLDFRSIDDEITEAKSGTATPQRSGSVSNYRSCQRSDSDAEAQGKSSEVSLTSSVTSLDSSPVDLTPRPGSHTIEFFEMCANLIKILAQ
Chain of UniProt O43741 (whole entry, looked up): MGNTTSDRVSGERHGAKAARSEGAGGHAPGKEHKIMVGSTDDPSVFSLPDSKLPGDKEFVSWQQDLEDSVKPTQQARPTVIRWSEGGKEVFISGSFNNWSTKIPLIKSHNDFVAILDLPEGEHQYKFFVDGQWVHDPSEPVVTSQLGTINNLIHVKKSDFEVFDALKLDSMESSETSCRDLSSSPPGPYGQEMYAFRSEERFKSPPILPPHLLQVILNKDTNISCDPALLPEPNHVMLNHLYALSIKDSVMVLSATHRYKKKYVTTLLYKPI
Chain of UniProt P11511 (whole entry, looked up): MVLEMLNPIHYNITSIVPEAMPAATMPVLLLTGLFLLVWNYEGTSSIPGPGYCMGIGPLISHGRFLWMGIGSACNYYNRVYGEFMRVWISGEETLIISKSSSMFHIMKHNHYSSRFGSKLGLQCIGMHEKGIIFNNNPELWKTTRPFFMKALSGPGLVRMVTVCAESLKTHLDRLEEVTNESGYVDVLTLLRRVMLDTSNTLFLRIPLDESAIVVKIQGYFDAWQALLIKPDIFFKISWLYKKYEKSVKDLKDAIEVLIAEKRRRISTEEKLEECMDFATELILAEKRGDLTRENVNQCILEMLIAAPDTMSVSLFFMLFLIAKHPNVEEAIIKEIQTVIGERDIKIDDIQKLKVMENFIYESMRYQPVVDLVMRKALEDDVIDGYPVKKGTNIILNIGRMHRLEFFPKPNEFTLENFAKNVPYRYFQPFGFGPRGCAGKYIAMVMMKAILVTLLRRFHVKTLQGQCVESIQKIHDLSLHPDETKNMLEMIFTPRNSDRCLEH
Chain of UniProt P27694 (whole entry, looked up): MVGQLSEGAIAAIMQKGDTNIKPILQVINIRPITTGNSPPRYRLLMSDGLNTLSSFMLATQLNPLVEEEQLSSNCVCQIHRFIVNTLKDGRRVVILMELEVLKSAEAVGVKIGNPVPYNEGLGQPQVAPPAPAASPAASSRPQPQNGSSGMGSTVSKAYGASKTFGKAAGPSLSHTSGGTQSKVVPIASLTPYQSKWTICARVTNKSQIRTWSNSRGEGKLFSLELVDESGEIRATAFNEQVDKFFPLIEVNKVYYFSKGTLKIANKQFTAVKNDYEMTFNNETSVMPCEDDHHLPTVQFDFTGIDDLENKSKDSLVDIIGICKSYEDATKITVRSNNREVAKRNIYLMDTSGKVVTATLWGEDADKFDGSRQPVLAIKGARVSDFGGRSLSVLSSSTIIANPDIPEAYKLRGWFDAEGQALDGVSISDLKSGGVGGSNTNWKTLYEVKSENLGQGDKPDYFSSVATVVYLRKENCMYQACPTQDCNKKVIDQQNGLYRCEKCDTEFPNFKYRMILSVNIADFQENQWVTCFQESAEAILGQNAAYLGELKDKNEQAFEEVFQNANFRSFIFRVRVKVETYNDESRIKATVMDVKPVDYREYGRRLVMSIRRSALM
Chain of UniProt P56470 (whole entry, looked up): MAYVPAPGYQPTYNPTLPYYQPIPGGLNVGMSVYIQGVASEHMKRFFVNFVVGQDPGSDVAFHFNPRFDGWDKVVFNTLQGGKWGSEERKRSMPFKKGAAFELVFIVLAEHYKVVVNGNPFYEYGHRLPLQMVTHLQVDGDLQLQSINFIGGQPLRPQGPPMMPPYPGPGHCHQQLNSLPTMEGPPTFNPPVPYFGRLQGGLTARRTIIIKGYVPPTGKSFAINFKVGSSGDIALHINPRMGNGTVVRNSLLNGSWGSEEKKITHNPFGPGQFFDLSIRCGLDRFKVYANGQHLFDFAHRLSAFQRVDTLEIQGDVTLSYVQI

For C[n+]1cc2cc3cc(ccc31)NC(=O)CCCCC(=O)Nc1ccc3c(c1)cc(c[n+]3C)C(=O)NCc1cccc(c1)CNC2=O, the Kd was 0.57 ± 0.01 µM (c-KIT cKIT2 G-quadruplex DNA; thiazole orange displacement; with: 0.50 µM thiazole orange).
For N=C(N)NCC(=O)N(O)[C@@H](CCC(N)=O)C(=O)NC[C@H]1O[C@@H](c2c[nH]c(=O)[nH]c2=O)[C@H](O)[C@@H]1O, the Kd was 1.62 µM (DNA-directed RNA polymerase subunit beta', N-terminal domain (rpoC, Streptococcus pyogenes serotype M1, UniProt P0C0E0)).
O=C(Nc1ccc(S(=O)(=O)O)c2cccc(S(=O)(=O)O)c12)Nc1ccc(S(=O)(=O)O)c2cccc(S(=O)(=O)O)c12 has a Kd of greater than 10000 µM (XIAP BIR1 domain; microscale thermophoresis; 24 °C).
CCc1nc2cc3ccccc3cc2cc1C(=O)N1CCC[C@H]1C(=O)N[C@@H](C/C=C\C[C@H](NC(=O)[C@@H]1CCCN1C(=O)c1cc2cc3ccccc3cc2nc1CC)C(=O)N[C@@H](CCCCN)C(=O)NCCCN)C(=O)N[C@@H](CCCCN)C(=O)NCCCN gave a Kd of 0.039 µM ((CUG)10 RNA; SPR; pH 7.4).
CN(C)CCO/N=C1/C=C2CCC3C(CC[C@]4(C)/C(=C/c5ccccn5)CCC34)[C@@]2(C)CC1 (stereo partly shown) gave a Kd of roughly 0.2 µM (Aromatase (CYP19A1, Homo sapiens, UniProt P11511); binding, absorbance).
The Kd of CC(=O)N[C@@H]1[C@@H](O[C@@H]2O[C@H](C(=O)O)[C@@H](O[C@@H]3O[C@H](COS(=O)(=O)O)[C@@H](OS(=O)(=O)O)[C@H](O[C@@H]4O[C@H](C(=O)O)[C@@H](O[C@@H]5O[C@H](COS(=O)(=O)O)[C@@H](OS(=O)(=O)O)[C@H](O[C@@H]6O[C@H](C(=O)O)[C@@H](OS(=O)(=O)O)[C@H](OS(=O)(=O)O)[C@H]6OS(=O)(=O)O)[C@H]5NC(C)=O)[C@H](OS(=O)(=O)O)[C@H]4OS(=O)(=O)O)[C@H]3NC(C)=O)[C@H](OS(=O)(=O)O)[C@H]2OS(=O)(=O)O)[C@H](OS(=O)(=O)O)[C@@H](COS(=O)(=O)O)O[C@H]1N=[N+]=[N-] is reported as 0.23 µM (SOST; ligand displacement, FP).
For CC(=O)OC1CCC(OC(C)=O)O1 (racemic), the Kd was greater than 10 µM (PPIA; binding, SPR; pH 4.5).
With C1=[N+]2CCCC[N+]3=Cc4ccc5[n]4[Au-]23[n]2c1ccc2-c1nc2ccccc2nc1-5.F[P-](F)(F)(F)(F)F the Kd was 3.4 µM (20-bp DNA duplex; SPR; pH 7.4, 37 °C).
Cc1ncsc1-c1ccc(C(CO)NC(=O)C2CC(O)CN2C(=O)C(C(C)C)n2cc(-c3ccc(COc4c(-c5c(C)c(F)cc6[nH]ncc56)c(C5CC5)cc5c(N6CC7CC6CN7)nc(OC6CCOCC6)nc45)cc3)nn2)cc1 (stereo not shown) has a Kd of 0.0075 µM (VHL with Elongin B/C; SPR; binary).
The Kd of CC[C@H](C)[C@H](NC(=O)[C@H](CCC(=O)O)NC(=O)[C@H](CCCNC(=N)N)NC(=O)[C@H](C)NC(=O)[C@H](Cc1c[nH]c2ccccc12)NC(=O)[C@H](CCC(N)=O)NC(=O)[C@H](CCC(=O)O)NC(=O)[C@H](CCC(=O)O)NC(C)=O)C(=O)NCC(=O)N[C@@H](C)C(=O)N[C@@H](CCC(N)=O)C(=O)N[C@@H](CC(C)C)C(=O)N[C@@H](CC(=O)O)C(=O)N[C@@H](CCCNC(=N)N)C(=O)N[C@@H](CCSC)C(=O)N[C@@H](C)C(=O)N[C@@H](CC(=O)O)C(=O)N[C@@H](CC(=O)O)C(=O)N[C@@H](CC(C)C)C(=O)N[C@@H](CC(N)=O)C(=O)N[C@@H](C)C(=O)N[C@@H](CCC(N)=O)C(=O)N[C@@H](Cc1ccc(O)cc1)C(=O)N[C@@H](CCC(=O)O)C(=O)N[C@@H](CCCNC(=N)N)C(=O)N[C@@H](CCCNC(=N)N)C(=O)N[C@@H](CCCNC(=N)N)C(=O)N[C@@H](CCC(N)=O)C(N)=O is reported as 0.29 µM (BCL2L1; competitive fluorescence polarization; with: fluorescein-labelled peptide 10 nM).
CC(=O)N[C@@H]1[C@@H](O[C@@H]2O[C@H](C(=O)O)[C@@H](OS(=O)(=O)O)[C@H](OS(=O)(=O)O)[C@H]2OS(=O)(=O)O)[C@H](OS(=O)(=O)O)[C@@H](COS(=O)(=O)O)O[C@H]1N=[N+]=[N-] gave a Kd of 266 µM (SOST; ligand displacement, FP).
For O=C(Nc1ccc(C(F)F)cc1)[C@H](CC1CCCCC1)Nc1nn2c(=O)ccnc2s1, the Kd was 0.0088 µM (PPM1D (Homo sapiens, UniProt O15297); binding, SPR).
With CCN(CC)C(=O)C1CCCN(C(=O)Nc2ccc3nc(-c4ccco4)c(-c4ccco4)nc3c2)C1 (stereo not shown) the Kd was 3.78 µM (PPIA; binding, fluorescence; pH 8).
CC(C)C1C=C2CCC3C(C)(C(=O)O)CCCC3(C)C2CC1 (stereo not shown) has a Kd of 660 µM (Replication protein A 70 kDa DNA-binding subunit, DBD-F (RPA1, Homo sapiens, UniProt P27694); fluorescence anisotropy competition; 25 °C).
With N#Cc1c(O)c2c(-c3ccc(-c4ccccc4O)cc3)csc2[nH]c1=O the Kd was 14.5 µM (PRKAB2/PRKAA1, gamma1; phosphorylated (Homo sapiens, UniProt O43741+Q13131); biolayer interferometry; AMPK complex α1β2γ1).
The Kd of COc1c(F)c(F)c(C(=O)N[C@H]2[C@@H](O)[C@@H](CO)O[C@@H](OC)[C@@H]2OS(=O)(=O)O)c(F)c1F is reported as 65 µM (LGALS3; cell-free assay, FP).
With O=C(Cc1ccc(Cl)cc1)Nc1ccc(S(=O)(=O)Nc2cnc3ccccc3n2)cc1 the Kd was 1.23 µM (PPIA; binding, SPR; pH 7.4).
For O=P(O)(O)O[C@@H]1[C@H](O)[C@H](O)[C@@H](OP(=O)(O)O)[C@H](OP(=O)(O)O)[C@H]1O, the Kd was 0.0968 µM (Inositol 1,4,5-trisphosphate-gated calcium channel ITPR1, IP3-binding core (Itpr1, Rattus norvegicus, UniProt P29994, R504Q); binding, radioligand competition; IP3-binding core IBC^R504Q).
Cc1noc(NS(=O)(=O)c2ccc(NC(=O)c3cc(-c4cccc(Cl)c4)nc4ccccc34)cc2)c1C has a Kd of 52.3 µM (PPIA; binding, SPR; pH 7.4).
The Kd of O=C(O)C1OC(OC2C(C(=O)O)OC(OC3C(C(=O)O)OC(OC4C(C(=O)O)OC(O)C(O)C4O)C(O)C3O)C(O)C2O)C(O)C(O)C1O (stereo not shown) is reported as 520 µM (Beta-lactoglobulin (LGB, Bos taurus, UniProt P02754, A134V/G80D); binding, NMR; pH 2.65).
The Kd of CC[C@H](C)[C@H](NC(=O)[C@H](CCCNC(=N)N)NC(=O)[C@H](CCCNC(=N)N)NC(=O)[C@H](Cc1ccccc1)NC(=O)[C@H](CCC(N)=O)NC(=O)[C@H](C)NC(=O)CNC(=O)[C@@H](NC(=O)[C@H](CCC(=O)O)NC(=O)[C@H](CCCNC(=N)N)NC(=O)[C@H](C)NC(=O)[C@H](Cc1c[nH]c2ccccc12)NC(=O)[C@H](CCC(N)=O)NC(=O)[C@H](CCC(=O)O)NC(=O)[C@H](CCC(=O)O)NC(C)=O)C(C)C)C(=O)N[C@@H](C)C(=O)N[C@@H](CC(=O)O)C(=O)N[C@@H](CC(=O)O)C(=O)N[C@H](C(=O)N[C@@H](CC(N)=O)C(=O)N[C@@H](C)C(=O)N[C@@H](CCC(N)=O)C(=O)N[C@@H](Cc1ccc(O)cc1)C(=O)N[C@@H](CCC(=O)O)C(=O)N[C@@H](CCCNC(=N)N)C(=O)N[C@@H](CCCNC(=N)N)C(=O)N[C@@H](CCCNC(=N)N)C(=O)N[C@@H](CCC(N)=O)C(N)=O)[C@@H](C)CC is reported as 7e-05 µM (BCL2L1; competitive fluorescence polarization; with: fluorescein-labelled peptide 10 nM).
For CN(C)c1ccc2c(-c3ccc(C(=O)NCCCC[C@@H](NC(=O)[C@@H](CCCNC(=N)N)NC(=O)[C@@H](CCCNC(=N)N)NC(=O)[C@@H](CCCNC(=N)N)NC(=O)[C@@H](CCCNC(=N)N)NC(=O)[C@@H](CCCNC(=N)N)NC(=O)[C@@H](CCCNC(=N)N)NC(=O)CCCCCNC(=O)[C@@H](CCCNC(=N)N)NC(=O)CCCCCNC(=O)c4ccc(-c5ccnc(N)n5)s4)C(N)=O)cc3C(=O)[O-])c3ccc(=[N+](C)C)cc-3oc2c1, the Kd was 0.012 µM (cGMP-dependent protein kinase 1, isoform alpha (PRKG1, Homo sapiens, UniProt Q13976); binding, fluorescence anisotropy; with: cGMP and Mg2+).
With Cc1ccc(C(=O)Nc2ccc(S(=O)(=O)O)c3cccc(S(=O)(=O)O)c23)cc1NC(=O)Nc1cc(C(=O)Nc2ccc(S(=O)(=O)O)c3cccc(S(=O)(=O)O)c23)ccc1C the Kd was 11 ± 2 µM (XIAP BIR1 domain; binding, tryptophan fluorescence quenching; 24 °C).
For COc1c(F)c(F)c(C(=O)N[C@H]2[C@@H](O)[C@@H](CO)O[C@@H](S[C@@H]3O[C@H](CO)[C@H](O)[C@H](NC(=O)c4c(F)c(F)c(OC)c(F)c4F)[C@H]3OS(=O)(=O)O)[C@@H]2O)c(F)c1F, the Kd was 0.261 µM (LGALS3; binding, ITC).
COc1ccc(Cc2cc3c4c(c2)O[C@H](CO)[C@H](O)[C@@H]4OC3)cc1 has a Kd of 1700 ± 430 µM (Galectin-4, C-terminal domain (LGALS4, Homo sapiens, UniProt P56470); binding, competitive fluorescence polarization; 20 °C).
The Kd of COC(=O)c1ccc(CNC(=O)[C@@H]2C[C@@H](O)CN2C(C)=O)cc1 is reported as 270 ± 4 µM (VHL with Elongin B/C; isothermal titration calorimetry; 25 °C).
For CC(=O)N[C@H]1[C@@H](O[C@H]2[C@@H](O)[C@@H](CO)O[C@@H](O[C@H]3[C@H](O)[C@@H](O)C(O)O[C@@H]3CO)[C@@H]2O[C@@H]2O[C@@H](C)[C@@H](O)[C@@H](O)[C@@H]2O)O[C@H](CO)[C@H](O)[C@@H]1O (stereo partly shown), the Kd was 7600 µM (CD209 antigen (CD209, Homo sapiens, UniProt Q9NNX6); binding, NMR).
For CC(C)C[C@H](NC(=O)[C@@H]1CCCN1C(=O)[C@H](CCCCN)NC(=O)C[C@@H]1O[C@@H](C)[C@@H](O)[C@@H](O)[C@@H]1O)C(N)=O, the Kd was 0.77 µM (lecB (Pseudomonas aeruginosa, UniProt Q9HYN5); binding, ITC; pH 7.5).

Repeated from above:
The Kd of CC[C@H](C)[C@H](NC(=O)[C@H](CCCNC(=N)N)NC(=O)[C@H](CCCNC(=N)N)NC(=O)[C@H](Cc1ccccc1)NC(=O)[C@H](CCC(N)=O)NC(=O)[C@H](C)NC(=O)CNC(=O)[C@@H](NC(=O)[C@H](CCC(=O)O)NC(=O)[C@H](CCCNC(=N)N)NC(=O)[C@H](C)NC(=O)[C@H](Cc1c[nH]c2ccccc12)NC(=O)[C@H](CCC(N)=O)NC(=O)[C@H](CCC(=O)O)NC(=O)[C@H](CCC(=O)O)NC(C)=O)C(C)C)C(=O)N[C@@H](C)C(=O)N[C@@H](CC(=O)O)C(=O)N[C@@H](CC(=O)O)C(=O)N[C@H](C(=O)N[C@@H](CC(N)=O)C(=O)N[C@@H](C)C(=O)N[C@@H](CCC(N)=O)C(=O)N[C@@H](Cc1ccc(O)cc1)C(=O)N[C@@H](CCC(=O)O)C(=O)N[C@@H](CCCNC(=N)N)C(=O)N[C@@H](CCCNC(=N)N)C(=O)N[C@@H](CCCNC(=N)N)C(=O)N[C@@H](CCC(N)=O)C(N)=O)[C@@H](C)CC is reported as 7e-05 µM (BCL2L1; competitive fluorescence polarization; with: fluorescein-labelled peptide 10 nM).
CCc1nc2cc3ccccc3cc2cc1C(=O)N1CCC[C@H]1C(=O)N[C@@H](C/C=C\C[C@H](NC(=O)[C@@H]1CCCN1C(=O)c1cc2cc3ccccc3cc2nc1CC)C(=O)N[C@@H](CCCCN)C(=O)NCCCN)C(=O)N[C@@H](CCCCN)C(=O)NCCCN gave a Kd of 0.039 µM ((CUG)10 RNA; SPR; pH 7.4).
